{"data": "Measured values gathered from unrelated publications", "ESR1": "Estrogen receptor (ESR1, Homo sapiens, UniProt P03372)", "SLC10A1": "Hepatic sodium/bile acid cotransporter (SLC10A1, Homo sapiens, UniProt Q14973)", "DRD3": "D(3) dopamine receptor (DRD3, Homo sapiens, UniProt P35462)", "CDK2 with cyclin A": "Cyclin-dependent kinase 2, with cyclin A (CDK2, Homo sapiens, UniProt P24941)", "CDK2": "Cyclin-dependent kinase 2 (CDK2, Homo sapiens, UniProt P24941)", "note": "Each line is one published result; not all experiments were run side by side. Numbers after ± are the reported error.", "UniProt P35462, sequence (whole entry, looked up)": "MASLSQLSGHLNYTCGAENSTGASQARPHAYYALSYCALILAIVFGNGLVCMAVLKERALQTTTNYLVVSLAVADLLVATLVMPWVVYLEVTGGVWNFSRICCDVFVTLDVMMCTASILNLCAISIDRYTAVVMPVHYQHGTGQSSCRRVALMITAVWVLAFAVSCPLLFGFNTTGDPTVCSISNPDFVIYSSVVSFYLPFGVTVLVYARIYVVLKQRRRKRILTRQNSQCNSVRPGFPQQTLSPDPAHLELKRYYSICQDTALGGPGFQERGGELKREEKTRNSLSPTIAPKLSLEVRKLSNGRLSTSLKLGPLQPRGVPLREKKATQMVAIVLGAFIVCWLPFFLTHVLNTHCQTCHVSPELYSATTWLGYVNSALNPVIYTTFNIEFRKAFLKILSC", "UniProt P03372, sequence (whole entry, looked up)": "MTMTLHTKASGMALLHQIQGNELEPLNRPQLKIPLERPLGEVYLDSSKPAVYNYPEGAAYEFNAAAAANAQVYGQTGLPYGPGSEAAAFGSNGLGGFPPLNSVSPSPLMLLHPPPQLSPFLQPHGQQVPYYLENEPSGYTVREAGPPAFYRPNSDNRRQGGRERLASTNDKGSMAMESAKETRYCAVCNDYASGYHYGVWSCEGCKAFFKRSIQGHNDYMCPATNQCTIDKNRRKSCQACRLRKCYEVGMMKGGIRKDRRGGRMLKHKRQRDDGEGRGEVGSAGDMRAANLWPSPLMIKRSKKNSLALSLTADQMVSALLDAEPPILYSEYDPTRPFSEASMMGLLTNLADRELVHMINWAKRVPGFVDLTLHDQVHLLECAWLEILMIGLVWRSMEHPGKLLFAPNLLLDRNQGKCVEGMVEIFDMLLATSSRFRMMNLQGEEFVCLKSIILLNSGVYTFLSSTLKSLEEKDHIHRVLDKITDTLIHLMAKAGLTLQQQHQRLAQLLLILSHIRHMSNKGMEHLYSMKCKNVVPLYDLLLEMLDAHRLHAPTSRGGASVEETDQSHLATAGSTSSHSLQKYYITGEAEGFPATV", "UniProt Q14973, sequence (whole entry, looked up)": "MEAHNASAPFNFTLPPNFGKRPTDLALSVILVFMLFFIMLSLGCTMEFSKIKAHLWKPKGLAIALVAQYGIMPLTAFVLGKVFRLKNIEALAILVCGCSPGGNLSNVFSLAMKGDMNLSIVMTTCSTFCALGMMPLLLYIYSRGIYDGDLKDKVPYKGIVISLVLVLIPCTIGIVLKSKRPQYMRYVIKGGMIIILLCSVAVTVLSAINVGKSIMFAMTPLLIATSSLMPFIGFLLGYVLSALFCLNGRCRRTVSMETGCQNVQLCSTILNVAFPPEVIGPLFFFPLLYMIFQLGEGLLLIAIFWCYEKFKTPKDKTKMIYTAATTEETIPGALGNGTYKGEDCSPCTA", "UniProt Q68D91, sequence (whole entry, looked up)": "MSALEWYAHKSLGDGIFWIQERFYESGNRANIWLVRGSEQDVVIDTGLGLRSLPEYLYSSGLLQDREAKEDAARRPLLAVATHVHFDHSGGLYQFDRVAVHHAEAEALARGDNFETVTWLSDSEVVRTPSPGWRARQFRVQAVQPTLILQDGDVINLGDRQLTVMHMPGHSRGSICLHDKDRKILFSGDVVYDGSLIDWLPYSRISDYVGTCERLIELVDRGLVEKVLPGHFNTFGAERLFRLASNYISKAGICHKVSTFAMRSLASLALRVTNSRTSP", "UniProt Q9P2K8, sequence (whole entry, looked up)": "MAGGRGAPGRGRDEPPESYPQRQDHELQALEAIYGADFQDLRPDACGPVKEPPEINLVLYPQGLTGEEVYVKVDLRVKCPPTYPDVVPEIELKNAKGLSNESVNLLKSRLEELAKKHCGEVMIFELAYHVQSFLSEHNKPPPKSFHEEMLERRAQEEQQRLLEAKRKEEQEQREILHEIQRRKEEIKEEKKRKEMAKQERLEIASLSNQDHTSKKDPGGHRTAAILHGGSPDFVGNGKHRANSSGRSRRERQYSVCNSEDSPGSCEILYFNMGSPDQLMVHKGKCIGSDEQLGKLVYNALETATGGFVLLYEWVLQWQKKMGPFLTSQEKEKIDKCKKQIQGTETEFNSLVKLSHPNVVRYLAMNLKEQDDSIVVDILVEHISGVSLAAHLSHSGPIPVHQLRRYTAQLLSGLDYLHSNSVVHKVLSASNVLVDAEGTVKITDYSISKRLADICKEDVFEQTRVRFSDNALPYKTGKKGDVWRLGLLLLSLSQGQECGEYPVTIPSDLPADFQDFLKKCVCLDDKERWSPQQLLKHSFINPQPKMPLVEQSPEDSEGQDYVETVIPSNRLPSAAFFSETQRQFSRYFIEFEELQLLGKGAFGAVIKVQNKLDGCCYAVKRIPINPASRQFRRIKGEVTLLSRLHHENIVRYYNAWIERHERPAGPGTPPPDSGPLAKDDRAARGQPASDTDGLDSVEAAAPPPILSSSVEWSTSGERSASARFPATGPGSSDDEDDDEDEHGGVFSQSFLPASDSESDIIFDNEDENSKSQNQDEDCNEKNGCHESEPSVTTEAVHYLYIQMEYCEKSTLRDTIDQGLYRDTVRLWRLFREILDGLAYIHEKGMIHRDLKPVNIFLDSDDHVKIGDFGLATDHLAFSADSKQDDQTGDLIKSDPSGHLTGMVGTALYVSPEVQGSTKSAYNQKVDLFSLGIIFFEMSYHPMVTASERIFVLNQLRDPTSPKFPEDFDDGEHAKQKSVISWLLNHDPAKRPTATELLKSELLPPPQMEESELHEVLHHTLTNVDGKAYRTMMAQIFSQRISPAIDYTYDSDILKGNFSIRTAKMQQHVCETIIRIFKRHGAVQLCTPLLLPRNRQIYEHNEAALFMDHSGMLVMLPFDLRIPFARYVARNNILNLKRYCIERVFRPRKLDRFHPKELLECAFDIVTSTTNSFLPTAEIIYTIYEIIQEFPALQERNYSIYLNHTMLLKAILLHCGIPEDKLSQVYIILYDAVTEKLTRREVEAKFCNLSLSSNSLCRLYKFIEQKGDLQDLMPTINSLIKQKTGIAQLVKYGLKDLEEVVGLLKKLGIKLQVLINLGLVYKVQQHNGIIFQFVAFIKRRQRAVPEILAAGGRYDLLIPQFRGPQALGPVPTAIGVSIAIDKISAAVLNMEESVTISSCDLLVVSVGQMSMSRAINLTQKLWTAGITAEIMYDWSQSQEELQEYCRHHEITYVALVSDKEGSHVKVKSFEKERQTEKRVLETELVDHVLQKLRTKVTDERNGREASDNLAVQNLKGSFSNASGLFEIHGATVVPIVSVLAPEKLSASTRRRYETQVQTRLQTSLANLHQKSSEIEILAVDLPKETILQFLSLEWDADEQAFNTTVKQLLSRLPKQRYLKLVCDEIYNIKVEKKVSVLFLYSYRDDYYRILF"}
{"Compound": "COc1ccc(-c2oc3cc(O)cc(O)c3c(=O)c2O)cc1", "target": "ESR1", "assay": "array formation, agonist", "system": "ERα-GFP PRL-HeLa", "setting": "1 h", "measurement": "EC50", "result": "1.17 µM"}
{"Compound": "CC(C)NCC(O)COc1ccc(CC(N)=O)cc1 (stereo not shown)", "target": "SLC10A1", "assay": "taurocholate uptake, inhibitor", "system": "NTCP-expressing HEK293", "setting": "added: 10 µM taurocholate", "measurement": "Ki", "result": "167 ± 55 µM"}
{"Compound": "CCCCN(CCCC)C(=O)c1c(C)[nH]c(C)c1S(=O)(=O)Nc1ccc(C(F)(F)F)c(Cl)c1", "target": "DRD3", "assay": "Go activation, antagonist, BRET", "setting": "added: dopamine", "measurement": "IC50", "result": "> 100 µM"}
{"Compound": "C/C=C1\\NC(=O)[C@H]2CSSCC/C=C/[C@H](CC(=O)N[C@H](C(C)C)C(=O)N2)OC(=O)[C@H](C(C)C)NC1=O", "target": "MBLAC2 (Homo sapiens, UniProt Q68D91)", "assay": "inhibitor, competition pulldown", "system": "SW620 and MV4-11 lysate", "setting": "1 h", "measurement": "Kd", "result": "> 30.2 µM"}
{"Compound": "Cc1c(C(=O)N(C)C)c(S(=O)(=O)Nc2ccc(C(F)(F)F)c(Cl)c2)c(C)n1C", "target": "DRD3", "assay": "β-arrestin recruitment, antagonist, PathHunter", "setting": "added: dopamine EC80", "measurement": "IC50", "result": "> 100 µM"}
{"Compound": "CC[C@@H]1[C@H](F)C(=O)N[C@@H]1COc1nccc2cc(C(N)=O)c(OC)cc12", "target": "eIF-2-alpha kinase GCN2 (EIF2AK4, Homo sapiens, UniProt Q9P2K8)", "assay": "ATP probe binding, KiNativ profiling, measured: GCN2 Lys2 probe site", "system": "THP-1 cell lysate", "measurement": "IC50", "result": "> 5 µM"}
{"Compound": "CN(C)C(=O)c1c[nH]cc1S(=O)(=O)Nc1ccc(C(F)(F)F)c(Cl)c1", "target": "DRD3", "assay": "β-arrestin recruitment, antagonist, PathHunter", "setting": "added: dopamine EC80", "measurement": "IC50", "result": "> 100 µM"}
{"Compound": "CCOc1ccc2ccccc2c1C(=O)N[C@@H]1C(=O)N2[C@@H]1SC(C)(C)[C@@H]2C(=O)O", "target": "SLC10A1", "assay": "taurocholate uptake, inhibitor", "system": "NTCP-expressing HEK293", "setting": "added: 10 µM taurocholate", "measurement": "Ki", "result": "2010 ± 5840 µM"}
{"Compound": "O=C(Nc1cc(C2CCCCC2)[nH]n1)c1ccc(Br)cc1", "target": "CDK2 with cyclin A", "assay": "bio-layer interferometry", "setting": "added: cyclin A", "measurement": "Kd", "result": "> 100 µM"}
{"Compound": "CCCc1nc2c(C)cc(-c3nc4ccccc4n3C)cc2n1Cc1ccc(-c2ccccc2C(=O)O)cc1", "target": "SLC10A1", "assay": "taurocholate uptake, inhibitor", "system": "NTCP-expressing HEK293", "setting": "added: 10 µM taurocholate", "measurement": "Ki", "result": "65 ± 9.1 µM"}
{"Compound": "COc1cc(OC)c(NC(=O)CSc2nnc(-c3ccncc3)n2-c2ccccc2)cc1Cl", "target": "CDK2 with cyclin A", "measurement": "Kd", "result": "> 100 µM"}
{"Compound": "Cc1[nH]c(C)c(S(=O)(=O)Nc2ccc(C(F)(F)F)c(Cl)c2)c1C(=O)N1CC(F)(F)C1", "target": "DRD3", "assay": "β-arrestin recruitment, antagonist, PathHunter", "setting": "added: dopamine EC80", "measurement": "IC50", "result": "> 100 µM"}
{"Compound": "O=c1c(O[C@@H]2O[C@H](CO)[C@@H](O)[C@H](O)[C@H]2O)c(-c2ccc(O)c(O)c2)oc2cc(O)cc(O)c12", "target": "ESR1", "assay": "array formation, agonist", "system": "ERα-GFP PRL-HeLa", "setting": "1 h", "measurement": "EC50", "result": "1.15 µM"}
{"Compound": "Cc1c(NS(=O)(=O)c2cccc3nonc23)c(=O)n(-c2ccccc2)n1C", "target": "CDK2", "assay": "binding", "measurement": "Kd", "result": "> 100 µM"}
{"Compound": "COc1ccc(-c2coc3cc(O)ccc3c2=O)cc1", "target": "ESR1", "assay": "array formation, agonist", "system": "ERα-GFP PRL-HeLa", "setting": "1 h", "measurement": "EC50", "result": "1.17 µM"}
{"Compound": "Nc1nc(N)c2nc(-c3ccccc3)c(N)nc2n1", "target": "SLC10A1", "assay": "taurocholate uptake, inhibitor", "system": "NTCP-expressing HEK293", "setting": "added: 10 µM taurocholate", "measurement": "Ki", "result": "411 ± 139 µM"}
{"Compound": "Cc1[nH]c(C)c(S(=O)(=O)N2CCC(F)(F)C2)c1S(=O)(=O)Nc1ccc(C(F)(F)F)c(Cl)c1", "target": "DRD3", "assay": "Go activation, antagonist, BRET", "setting": "added: dopamine", "measurement": "IC50", "result": "> 100 µM"}
{"Compound": "COc1ccc(-c2cc(=O)c3c(O)cc(OC)cc3o2)cc1", "target": "ESR1", "assay": "array formation, agonist", "system": "ERα-GFP PRL-HeLa", "setting": "1 h", "measurement": "EC50", "result": "0.987 µM"}
{"Compound": "CC(Sc1nc2ccccc2[nH]1)C(=O)Nc1ccc(S(N)(=O)=O)cc1 (stereo not shown)", "target": "CDK2", "assay": "binding", "measurement": "Kd", "result": "> 100 µM"}
{"Compound": "COc1cc2ncnc(Nc3ccc(F)c(Cl)c3)c2cc1OCCCN1CCOCC1", "target": "SLC10A1", "assay": "taurocholate uptake, inhibitor", "system": "NTCP-expressing HEK293", "setting": "added: 10 µM taurocholate", "measurement": "Ki", "result": "250 ± 41 µM"}
{"Compound": "COc1ccccc1NC(=O)CSc1nnc(-c2ccc([N+](=O)[O-])cc2)n1-c1ccccc1", "target": "CDK2 with cyclin A", "measurement": "Kd", "result": "> 100 µM"}
{"Compound": "O=C(/C=C/c1ccc(O)cc1)c1ccccc1", "target": "ESR1", "assay": "array formation, agonist", "system": "ERα-GFP PRL-HeLa", "setting": "1 h", "measurement": "EC50", "result": "6.33 µM"}
{"Compound": "COc1ccc(CC2c3cc(OC)c(OC)cc3CC[N+]2(C)CCC(=O)OCCCCCOC(=O)CC[N+]2(C)CCc3cc(OC)c(OC)cc3C2Cc2ccc(OC)c(OC)c2)cc1OC (stereo not shown)", "target": "SLC10A1", "assay": "taurocholate uptake, inhibitor", "system": "NTCP-expressing HEK293", "setting": "added: 10 µM taurocholate", "measurement": "Ki", "result": "176 ± 94 µM"}
{"Compound": "O=C(CSc1nnc(-c2ccncc2)o1)Nc1ccc(F)cc1", "target": "CDK2 with cyclin A", "measurement": "Kd", "result": "> 100 µM"}
{"Compound": "CC(C)[C@H]1CC[C@H](C(=O)N[C@H](Cc2ccccc2)C(=O)O)CC1", "target": "SLC10A1", "assay": "taurocholate uptake, inhibitor", "system": "NTCP-expressing HEK293", "setting": "added: 10 µM taurocholate", "measurement": "Ki", "result": "111 ± 7 µM"}
{"Compound": "COc1ccc(-c2coc3cc(O[C@@H]4O[C@H](CO)[C@@H](O)[C@H](O)[C@H]4O)ccc3c2=O)cc1O", "target": "ESR1", "assay": "array formation, agonist", "system": "ERα-GFP PRL-HeLa", "setting": "1 h", "measurement": "EC50", "result": "1.42 µM"}
{"Compound": "CCCN(CCC)C(=O)c1c(C)[nH]c(C)c1S(=O)(=O)Nc1ccc(C(F)(F)F)c(Cl)c1", "target": "DRD3", "assay": "Go activation, antagonist, BRET", "setting": "added: dopamine", "measurement": "IC50", "result": "> 100 µM"}
{"Compound": "CC1(C)C=Cc2c(ccc3c2OC[C@@H](c2ccc(O)cc2O)C3)O1", "target": "ESR1", "assay": "array formation, agonist", "system": "ERα-GFP PRL-HeLa", "setting": "1 h", "measurement": "EC50", "result": "0.187 µM"}
{"Compound": "COc1cccc(OC)c1CNC(=O)c1ccc2c(c1)C(=NNc1ccc(S(N)(=O)=O)cc1)C(=O)N2", "target": "CDK2", "assay": "average of ITC, Octet and Thermofluor", "setting": "untagged protein", "measurement": "Kd", "result": "0.288 µM"}
{"Compound": "Cc1[nH]c(C)c(S(=O)(=O)Nc2ccc([S+](C)[O-])c(Cl)c2)c1C(=O)N1CCC(F)(F)C1 (stereo not shown)", "target": "DRD3", "assay": "Go activation, antagonist, BRET", "setting": "added: dopamine", "measurement": "IC50", "result": "> 100 µM"}
{"Compound": "COc1cc(NC(=O)CSc2nncn2C)cc(OC)c1OC", "target": "CDK2", "assay": "binding", "measurement": "Kd", "result": "> 100 µM"}
{"Compound": "C[C@]12C=CC(=O)C=C1CC[C@@H]1[C@@H]2[C@@H](O)C[C@@]2(C)[C@H]1CC[C@]2(O)C(=O)CO", "target": "SLC10A1", "assay": "taurocholate uptake, inhibitor", "system": "NTCP-expressing HEK293", "setting": "added: 10 µM taurocholate", "measurement": "Ki", "result": "335 ± 177 µM"}
{"Compound": "Cc1[nH]c(C)c(S(=O)(=O)Nc2cc(Cl)ccc2C(F)(F)F)c1C(=O)N1CCC(F)(F)C1", "target": "DRD3", "assay": "Go activation, antagonist, BRET", "setting": "added: dopamine", "measurement": "IC50", "result": "> 100 µM"}
{"Compound": "C[C@@H]1O[C@@H](O[C@H]2[C@H](Oc3cc(O)c(C(=O)CCc4ccc(O)cc4)c(O)c3)O[C@H](CO)[C@@H](O)[C@@H]2O)[C@H](O)[C@H](O)[C@H]1O", "target": "ESR1", "assay": "array formation, agonist", "system": "ERα-GFP PRL-HeLa", "setting": "1 h", "measurement": "EC50", "result": "1.32 µM"}
